{"data": "Measured values pooled from the literature", "target": "Pancreatic triacylglycerol lipase (PNLIP, Sus scrofa, UniProt P00591)", "read-out": "enzyme activity", "mode": "inhibitor", "Sequence (P00591 1-450, as in one of the studies)": "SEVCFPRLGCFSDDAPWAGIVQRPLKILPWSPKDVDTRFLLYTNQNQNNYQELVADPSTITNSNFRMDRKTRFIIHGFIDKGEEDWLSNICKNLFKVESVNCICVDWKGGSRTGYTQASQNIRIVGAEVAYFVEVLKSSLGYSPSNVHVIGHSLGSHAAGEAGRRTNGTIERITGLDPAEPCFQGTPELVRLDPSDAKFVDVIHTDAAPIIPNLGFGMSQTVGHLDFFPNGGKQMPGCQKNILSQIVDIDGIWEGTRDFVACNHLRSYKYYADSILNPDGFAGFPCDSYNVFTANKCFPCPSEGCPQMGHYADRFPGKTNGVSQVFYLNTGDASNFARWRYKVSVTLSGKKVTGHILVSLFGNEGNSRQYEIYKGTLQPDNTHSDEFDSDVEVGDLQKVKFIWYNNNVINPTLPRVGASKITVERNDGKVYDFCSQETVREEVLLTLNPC"}
{"SMILES": "COc1ccc(/C=C/C(=O)CC(=O)/C=C/c2ccc(OC)cc2)cc1", "test": "absorbance", "IC50 [µM]": 188}
{"SMILES": "C=C1CC(O)CC(C)=CCC2C1CC2(C)O (stereo not drawn)", "test": "absorbance", "IC50 [µM]": "> 500"}
{"SMILES": "COc1cc(CCC(=O)CC(=O)CCc2ccc(O)cc2)ccc1O", "test": "absorbance", "IC50 [µM]": 81.5}
{"SMILES": "COc1cc(O)c2c(c1)C1=CC(O)C(O)CC1(C)OC2=O (stereo not drawn)", "test": "fluorescence", "setting": "pH 8", "IC50 [µM]": 3.18}
{"SMILES": "O=C(O[C@H]1Cc2c(O)cc(O)cc2O[C@@H]1c1ccc(O)cc1)c1cc(O)c(O)c(O)c1", "IC50 [µM]": 19.8}
{"SMILES": "COc1ccc(/C=C/C(=O)CC(=O)CCc2ccc(OC)c(OC)c2)cc1", "test": "absorbance", "IC50 [µM]": 82.7}
{"SMILES": "C=C1CC[C@@H]2O[C@@]2(C)CC[C@H]2[C@H]1C[C@]2(C)C(=O)/C=C/C(C)(O)COC(C)=O (stereo partly drawn)", "test": "absorbance", "IC50 [µM]": 425}
{"SMILES": "O=C(O[C@H]1Cc2c(O)cc(O)cc2O[C@@H]1c1cc(O)c(O)c(O)c1)c1cc(O)c(O)c(O)c1", "IC50 [µM]": 62.6}
{"SMILES": "C=C1CCC(O)C(C)=CCC2C1CC2(C)O (stereo not drawn)", "test": "absorbance", "IC50 [µM]": "> 500"}
{"SMILES": "O=C(O[C@@H]1Cc2c(O)cc(O)cc2O[C@@H]1c1ccc(O)c(O)c1)c1cc(O)c(O)c(O)c1", "IC50 [µM]": 16}
{"SMILES": "COc1cc(/C=C/C(=O)/C=C/c2ccc(O)c(OC)c2)ccc1O", "test": "absorbance", "IC50 [µM]": 235}
{"SMILES": "Cc1cc(O)c(C=O)c2c1C(=O)Oc1c(CO)c(O)c3c(c1O2)C(O)OC3=O (stereo not drawn)", "IC50 [µM]": 0.182}
{"note": "Repeated from above:"}
{"SMILES": "Cc1cc(O)c(C=O)c2c1C(=O)Oc1c(CO)c(O)c3c(c1O2)C(O)OC3=O (stereo not drawn)", "IC50 [µM]": 0.182}
